Results of several laboratories.
Each numbered part is a random draw from the data of one study; scales do not carry over between parts. “And” joins repeats or separate records; there may be more than shown.
Chain of UniProt P27037 (whole entry, looked up): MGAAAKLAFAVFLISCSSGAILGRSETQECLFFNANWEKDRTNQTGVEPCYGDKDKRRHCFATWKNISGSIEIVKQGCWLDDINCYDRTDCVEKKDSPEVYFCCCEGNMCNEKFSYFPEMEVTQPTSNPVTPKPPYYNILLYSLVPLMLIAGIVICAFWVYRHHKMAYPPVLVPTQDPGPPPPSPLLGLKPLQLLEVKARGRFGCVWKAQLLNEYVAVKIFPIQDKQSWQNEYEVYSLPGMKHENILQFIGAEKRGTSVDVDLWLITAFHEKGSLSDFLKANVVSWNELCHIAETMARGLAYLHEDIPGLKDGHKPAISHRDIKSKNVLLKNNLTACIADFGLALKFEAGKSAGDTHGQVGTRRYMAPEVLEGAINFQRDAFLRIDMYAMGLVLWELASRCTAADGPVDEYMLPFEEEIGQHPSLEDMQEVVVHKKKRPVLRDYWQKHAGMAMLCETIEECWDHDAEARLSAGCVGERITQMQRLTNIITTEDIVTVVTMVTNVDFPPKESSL
Chain of UniProt Q9UQM7 (whole entry, looked up): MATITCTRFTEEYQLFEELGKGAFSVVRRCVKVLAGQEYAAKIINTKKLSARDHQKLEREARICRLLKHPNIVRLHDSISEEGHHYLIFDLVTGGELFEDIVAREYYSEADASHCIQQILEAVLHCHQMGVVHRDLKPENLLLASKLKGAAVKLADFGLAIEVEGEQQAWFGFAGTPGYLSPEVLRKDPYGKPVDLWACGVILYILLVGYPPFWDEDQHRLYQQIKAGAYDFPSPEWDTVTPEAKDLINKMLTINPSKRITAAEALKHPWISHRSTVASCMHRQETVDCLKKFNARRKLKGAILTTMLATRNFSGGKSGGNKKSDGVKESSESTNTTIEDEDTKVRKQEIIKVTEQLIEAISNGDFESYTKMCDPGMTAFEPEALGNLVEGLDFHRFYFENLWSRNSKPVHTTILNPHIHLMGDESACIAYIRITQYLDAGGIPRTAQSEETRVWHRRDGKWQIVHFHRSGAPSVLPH
Chain of UniProt Q96D53 (whole entry, looked up): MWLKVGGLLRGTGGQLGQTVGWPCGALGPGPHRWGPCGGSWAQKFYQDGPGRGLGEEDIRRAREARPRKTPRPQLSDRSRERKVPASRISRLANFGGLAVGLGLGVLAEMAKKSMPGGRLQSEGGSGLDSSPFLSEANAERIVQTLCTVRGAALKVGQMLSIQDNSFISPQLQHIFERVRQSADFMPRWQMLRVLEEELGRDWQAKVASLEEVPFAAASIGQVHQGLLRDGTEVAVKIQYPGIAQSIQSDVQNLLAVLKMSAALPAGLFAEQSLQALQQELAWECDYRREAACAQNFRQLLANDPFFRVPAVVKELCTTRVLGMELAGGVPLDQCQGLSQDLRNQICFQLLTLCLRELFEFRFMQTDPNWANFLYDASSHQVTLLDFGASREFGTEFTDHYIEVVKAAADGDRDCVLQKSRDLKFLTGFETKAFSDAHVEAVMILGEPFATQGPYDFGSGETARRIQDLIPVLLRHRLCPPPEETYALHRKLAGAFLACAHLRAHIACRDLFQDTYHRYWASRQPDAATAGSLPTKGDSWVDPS
Chain of UniProt Q99759 (whole entry, looked up): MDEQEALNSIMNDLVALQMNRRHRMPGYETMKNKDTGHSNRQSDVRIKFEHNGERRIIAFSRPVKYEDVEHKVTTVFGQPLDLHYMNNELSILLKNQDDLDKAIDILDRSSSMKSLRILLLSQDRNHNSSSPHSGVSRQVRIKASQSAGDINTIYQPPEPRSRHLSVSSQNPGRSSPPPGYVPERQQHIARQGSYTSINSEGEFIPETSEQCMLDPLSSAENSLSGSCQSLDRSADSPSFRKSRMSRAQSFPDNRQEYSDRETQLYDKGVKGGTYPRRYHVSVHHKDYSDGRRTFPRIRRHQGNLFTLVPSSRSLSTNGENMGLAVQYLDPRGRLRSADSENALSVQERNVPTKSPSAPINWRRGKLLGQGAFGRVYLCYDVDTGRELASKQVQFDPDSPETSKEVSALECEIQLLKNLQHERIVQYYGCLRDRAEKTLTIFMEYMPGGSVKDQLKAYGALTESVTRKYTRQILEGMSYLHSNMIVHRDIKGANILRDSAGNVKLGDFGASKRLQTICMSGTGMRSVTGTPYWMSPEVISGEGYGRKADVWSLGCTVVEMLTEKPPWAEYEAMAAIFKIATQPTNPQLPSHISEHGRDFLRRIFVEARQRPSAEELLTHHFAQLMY

Block 1
Compound: CNC(=O)c1ccc(-c2cnn3ccc(C(=O)N(C)c4ccc(Cl)c(C(=O)OC)c4)cc23)cc1
Organism: Cryptosporidium parvum
Method: time-kill
Cells: HCT-8
Strain: nanoluciferase-expressing
Baseline: DMSO control
2.222 µM, 8 h — luminescence remaining: 85.1% and 102%.
0.00305 µM, 4 h — luminescence remaining: 115% and 86.5%.
It gave 116% and 79.2% for luminescence remaining (0.00102 µM, 72 h).
It gave 105% and 101% and 92% and 94.1% and 85.9% and 117% and 103% and 102% for luminescence remaining (0.00914 µM, 0 h).
0.00102 µM, 4 h — luminescence remaining: 109% and 98.9%.
The luminescence remaining was 94% and 106% (6.667 µM, 4 h).

Block 2
Structure (SMILES): Cn1cncc1[C@](O)(COc1ccc(C#N)cc1-c1ccc(OC(F)(F)F)cc1)c1ccc(C#N)cc1
Observed: cell-free assay
Method: competition with immobilised ligand
Concentration: 1 µM
It gave 89% for remaining binding (Serine/threonine-protein kinase pim-3 (PIM3, Homo sapiens, UniProt Q86V86)).
For Mitogen-activated protein kinase kinase kinase 3 (MAP3K3, Homo sapiens, UniProt Q99759): remaining binding read 100%.
The remaining binding was 85% (Calcium/calmodulin-dependent protein kinase type II subunit beta (CAMK2B, Homo sapiens, UniProt Q13554)).
Serine/threonine-protein kinase PLK1 (PLK1, Homo sapiens, UniProt P53350) — remaining binding: 77%.
It gave 98% for remaining binding (Serine/threonine-protein kinase TAO2 (TAOK2, Homo sapiens, UniProt Q9UL54)).
Tyrosine-protein kinase CSK (CSK, Homo sapiens, UniProt P41240) — remaining binding: 82%.
The remaining binding was 90% (Mitogen-activated protein kinase kinase kinase 15 (MAP3K15, Homo sapiens, UniProt Q6ZN16)).
It gave 99% for remaining binding (Calcium/calmodulin-dependent protein kinase type 1 (CAMK1, Homo sapiens, UniProt Q14012)).
For Serine/threonine-protein kinase 26 (STK26, Homo sapiens, UniProt Q9P289): remaining binding read 100%.
For Serine/threonine-protein kinase/endoribonuclease IRE1 (ERN1, Homo sapiens, UniProt O75460): remaining binding read 100%.
For Atypical kinase COQ8B, mitochondrial (COQ8B, Homo sapiens, UniProt Q96D53): remaining binding read 72%.
For Ribosomal protein S6 kinase alpha-1, C-terminal kinase domain (RPS6KA1, Homo sapiens, UniProt Q15418): remaining binding read 100%.
For cAMP-dependent protein kinase catalytic subunit PRKX (PRKX, Homo sapiens, UniProt P51817): remaining binding read 87%.
The remaining binding was 100% (Activin receptor type-2A (ACVR2A, Homo sapiens, UniProt P27037)).
The remaining binding was 100% (Phosphatidylinositol 4,5-bisphosphate 3-kinase catalytic subunit alpha isoform (PIK3CA, Homo sapiens, UniProt P42336, C420R)).
It gave 83% for remaining binding (Dual specificity mitogen-activated protein kinase kinase 5 (MAP2K5, Homo sapiens, UniProt Q13163)).
The remaining binding was 100% (Homeodomain-interacting protein kinase 3 (HIPK3, Homo sapiens, UniProt Q9H422)).
For Tyrosine-protein kinase HCK (HCK, Homo sapiens, UniProt P08631): remaining binding read 100%.

Block 3
Target: DNA polymerase theta, ATPase domain (POLQ, Homo sapiens, UniProt O75417)
Chain of UniProt O75417 (whole entry, unmodified, looked up): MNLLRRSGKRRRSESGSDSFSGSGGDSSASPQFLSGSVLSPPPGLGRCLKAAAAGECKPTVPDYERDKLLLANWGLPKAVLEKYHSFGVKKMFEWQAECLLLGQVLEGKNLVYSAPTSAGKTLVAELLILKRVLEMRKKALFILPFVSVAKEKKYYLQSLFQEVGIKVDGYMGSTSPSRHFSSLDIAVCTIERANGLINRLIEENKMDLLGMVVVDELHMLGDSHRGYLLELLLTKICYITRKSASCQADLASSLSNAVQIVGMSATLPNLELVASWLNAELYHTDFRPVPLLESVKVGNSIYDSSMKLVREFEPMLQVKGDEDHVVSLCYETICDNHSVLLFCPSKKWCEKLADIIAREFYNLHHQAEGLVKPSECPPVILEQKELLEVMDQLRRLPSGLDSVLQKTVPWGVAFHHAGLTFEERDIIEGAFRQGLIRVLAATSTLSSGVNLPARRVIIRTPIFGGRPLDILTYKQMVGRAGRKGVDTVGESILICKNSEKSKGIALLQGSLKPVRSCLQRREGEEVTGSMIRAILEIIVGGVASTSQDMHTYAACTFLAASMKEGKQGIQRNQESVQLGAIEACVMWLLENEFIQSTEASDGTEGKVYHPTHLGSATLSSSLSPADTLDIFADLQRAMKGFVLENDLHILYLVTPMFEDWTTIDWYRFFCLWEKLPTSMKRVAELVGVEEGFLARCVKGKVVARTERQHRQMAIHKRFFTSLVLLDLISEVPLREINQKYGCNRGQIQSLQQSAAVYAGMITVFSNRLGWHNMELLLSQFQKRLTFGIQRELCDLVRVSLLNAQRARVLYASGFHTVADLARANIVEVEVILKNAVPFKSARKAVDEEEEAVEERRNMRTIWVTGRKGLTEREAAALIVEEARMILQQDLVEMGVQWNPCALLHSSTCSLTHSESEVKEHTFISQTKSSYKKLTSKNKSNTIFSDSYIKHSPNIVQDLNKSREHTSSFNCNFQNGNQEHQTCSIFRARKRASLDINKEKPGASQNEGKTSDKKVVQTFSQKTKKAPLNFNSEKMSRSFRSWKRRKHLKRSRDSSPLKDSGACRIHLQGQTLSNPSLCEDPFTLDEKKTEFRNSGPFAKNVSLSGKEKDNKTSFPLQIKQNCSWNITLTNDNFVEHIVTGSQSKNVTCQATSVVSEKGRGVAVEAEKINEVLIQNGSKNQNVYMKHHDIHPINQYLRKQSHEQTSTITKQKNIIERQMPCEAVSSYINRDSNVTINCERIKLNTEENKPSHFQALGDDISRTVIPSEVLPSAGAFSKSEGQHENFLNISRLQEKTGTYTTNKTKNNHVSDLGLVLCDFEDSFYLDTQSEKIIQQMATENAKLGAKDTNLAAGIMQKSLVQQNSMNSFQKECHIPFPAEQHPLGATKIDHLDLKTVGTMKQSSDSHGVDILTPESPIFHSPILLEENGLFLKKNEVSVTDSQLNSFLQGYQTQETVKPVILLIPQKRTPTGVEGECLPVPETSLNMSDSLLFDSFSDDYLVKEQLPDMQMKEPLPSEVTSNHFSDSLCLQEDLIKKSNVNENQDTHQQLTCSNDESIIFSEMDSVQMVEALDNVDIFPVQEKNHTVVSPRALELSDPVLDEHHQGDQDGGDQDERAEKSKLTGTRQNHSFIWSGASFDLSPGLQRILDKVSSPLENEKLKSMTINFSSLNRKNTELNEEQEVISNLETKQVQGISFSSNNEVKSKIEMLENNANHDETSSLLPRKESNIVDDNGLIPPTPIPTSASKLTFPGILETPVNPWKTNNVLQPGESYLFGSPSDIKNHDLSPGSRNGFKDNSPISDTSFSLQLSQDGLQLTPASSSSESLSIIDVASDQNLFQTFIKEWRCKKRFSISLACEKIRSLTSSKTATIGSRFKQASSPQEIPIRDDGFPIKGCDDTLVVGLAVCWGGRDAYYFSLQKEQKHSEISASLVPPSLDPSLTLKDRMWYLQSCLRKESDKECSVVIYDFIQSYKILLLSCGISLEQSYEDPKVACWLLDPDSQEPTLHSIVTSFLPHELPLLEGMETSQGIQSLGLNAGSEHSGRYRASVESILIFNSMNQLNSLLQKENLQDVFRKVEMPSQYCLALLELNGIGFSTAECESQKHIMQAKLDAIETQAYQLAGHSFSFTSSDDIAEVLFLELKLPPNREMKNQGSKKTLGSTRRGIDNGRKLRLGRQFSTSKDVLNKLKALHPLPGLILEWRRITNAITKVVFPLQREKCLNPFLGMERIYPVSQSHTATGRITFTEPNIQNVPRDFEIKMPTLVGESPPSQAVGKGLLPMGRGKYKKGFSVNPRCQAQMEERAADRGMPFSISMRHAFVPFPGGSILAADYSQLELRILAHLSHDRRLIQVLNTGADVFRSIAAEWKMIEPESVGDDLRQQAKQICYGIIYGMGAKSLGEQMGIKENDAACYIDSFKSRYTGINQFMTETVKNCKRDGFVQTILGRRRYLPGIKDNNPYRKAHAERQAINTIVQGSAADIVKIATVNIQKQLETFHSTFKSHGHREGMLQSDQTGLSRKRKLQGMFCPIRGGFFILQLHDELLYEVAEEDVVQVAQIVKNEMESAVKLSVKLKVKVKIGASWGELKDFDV
Observed: enzyme activity
Mode: inhibitor
Concentration: 77 µM
Baseline: untreated
`CO[C@H]1CC=C2CCN3CCC4=C(CC(=O)OC4)[C@]23C1` has a remaining activity of 101%.
With `CNc1ccc2oc(C[C@H]3O[C@@]4(CC[C@H]3C)O[C@H]([C@H](C)C(=O)c3ccc[nH]3)[C@H](C)C[C@H]4C)nc2c1C(=O)O` the remaining activity was 97.8%.
For `CCC(=O)O[C@H]1CC[C@H]2[C@@H]3CCC4=CC(=O)CC[C@]4(C)[C@H]3CC[C@]12C`, the remaining activity was 92.2%.
`CC[C@@H](C(N)=O)N1CCCC1=O` has a remaining activity of 99.5%.

Block 4
SMILES: O=C1CCC(N2Cc3c(ccc4c3OCC43CCN(Cc4ccccc4)CC3)C2=O)C(=O)N1 (stereo not shown)
Sample: plasma
It gave 70.6 ng/mL and 70.5 ng/mL for plasma concentration (Sprague Dawley rat, male; intravenous, 1 mg/kg, 4 h).
The plasma concentration was 66.5 ng/mL and 53.2 ng/mL (Sprague Dawley rat, male; oral, 3 mg/kg, 0.5 h).
For ICR mouse, male; intravenous, 1 mg/kg, 8 h: plasma concentration read 3.57 ng/mL and 8.48 ng/mL and 3.17 ng/mL.
Sprague Dawley rat, male; oral, 3 mg/kg, 4 h — plasma concentration: 246 ng/mL and 240 ng/mL.
The plasma concentration was 28.6 ng/mL and 31.2 ng/mL and 78.4 ng/mL (ICR mouse, male; oral, 3 mg/kg, 6 h).
For ICR mouse, male; oral, 3 mg/kg, 24 h: plasma concentration read 1.28 ng/mL.
It gave 7.34 ng/mL and 4.94 ng/mL and 12.9 ng/mL for plasma concentration (ICR mouse, male; intravenous, 1 mg/kg, 6 h).
For ICR mouse, male; oral, 3 mg/kg, 1 h: plasma concentration read 464 ng/mL and 340 ng/mL.
The plasma concentration was 135 ng/mL (male Sprague Dawley rats; intravenous, 1 mg/kg, 2 h).
The plasma concentration was 179 ng/mL (male ICR mice; oral, 3 mg/kg, 2 h).

Further values, each from its own experiment
For `Cc1nc(Nc2ncc(C(=O)Nc3c(C)cccc3Cl)s2)cc(N2CCN(CCO)CC2)n1`, the inhibition was less than 50% (Dual specificity tyrosine-phosphorylation-regulated kinase 1B (DYRK1B, Homo sapiens, UniProt Q9Y463); 1 µM).
`N#C[C@@H](O[C@@H]1O[C@H](CO[C@@H]2O[C@H](CO)[C@@H](O)[C@H](O)[C@H]2O)[C@@H](O)[C@H](O)[C@H]1O)c1ccccc1` has an inhibition of 12% (Calcium/calmodulin-dependent protein kinase type II subunit alpha (CAMK2A, Homo sapiens, UniProt Q9UQM7); enzyme activity, inhibitor; 10 µM).
